Measured values collected from several papers.
Each line is one published result; not all experiments were run side by side. ± marks the error that the study gave.
UniProt P14902, sequence (whole entry, looked up): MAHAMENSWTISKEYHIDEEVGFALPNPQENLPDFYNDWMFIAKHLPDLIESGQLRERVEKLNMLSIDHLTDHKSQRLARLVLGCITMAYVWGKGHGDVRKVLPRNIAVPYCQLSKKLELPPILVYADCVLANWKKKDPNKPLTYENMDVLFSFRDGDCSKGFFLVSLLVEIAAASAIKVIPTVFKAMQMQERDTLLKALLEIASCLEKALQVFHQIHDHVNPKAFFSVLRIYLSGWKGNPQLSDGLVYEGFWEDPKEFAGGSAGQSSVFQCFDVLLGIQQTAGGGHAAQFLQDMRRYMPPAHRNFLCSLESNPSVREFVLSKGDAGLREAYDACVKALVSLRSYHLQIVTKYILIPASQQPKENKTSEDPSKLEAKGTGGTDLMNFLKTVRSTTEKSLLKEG

Nc1c(C(=O)c2ccc(Br)cc2)sc(S)c1-c1nc2ccccc2s1  maximum non-toxic concentration (HEp-2; cytotoxicity; 72 h): 100 µg/mL
N=C(N)NCCC[C@@H]1NC(=O)[C@H](CCCCNC(=O)CC[C@H](NC(=O)CC[C@H](NC(=O)CN2CCN(CC(=O)O)CCN(CC(=O)O)CCN(CC(=O)O)CC2)C(=O)N[C@@H](CCC(=O)NCCCC[C@@H]2NC(=O)[C@@H](Cc3ccccc3)NC(=O)[C@H](CC(=O)O)NC(=O)CNC(=O)[C@H](CCCNC(=N)N)NC2=O)C(=O)NCCCC[C@@H]2NC(=O)[C@@H](Cc3ccccc3)NC(=O)[C@H](CC(=O)O)NC(=O)CNC(=O)[C@H](CCCNC(=N)N)NC2=O)C(=O)NCCCC[C@@H]2NC(=O)[C@@H](Cc3ccccc3)NC(=O)[C@H](CC(=O)O)NC(=O)CNC(=O)[C@H](CCCNC(=N)N)NC2=O)NC(=O)[C@@H](Cc2ccccc2)NC(=O)[C@H](CC(=O)O)NC(=O)CNC1=O [indium-111 labelled]  tissue uptake (female athymic nu/nu mice, U87MG tumour; intravenous, 111 kBq, 0.5 h): 8.97 ± 0.52 %ID/g
CC(=O)NCCCC[C@H](NC(=O)CNC(=O)[C@H](CO)NC(=O)[C@H](CC(=O)O)NC(=O)[C@H](CCCCN)NC(=O)CNC(=O)[C@H](C)NC(=O)[C@H](CCCCN)NC(=O)CNC(=O)CNC(=O)[C@H](C)NC(=O)[C@@H](N)Cc1ccc(O)cc1)C(=O)N[C@@H](C)C(=O)N[C@@H](CCCCNC(C)=O)C(=O)N[C@H](C(=O)N[C@@H](CCCCN)C(=O)N[C@@H](C)C(=O)N[C@H](C(=O)N[C@@H](CO)C(=O)N[C@@H](CCCNC(=N)N)C(N)=O)C(C)C)[C@@H](C)O  Kd (Nucleosome-remodeling factor subunit BPTF, bromodomain (BPTF, Homo sapiens, UniProt Q12830); bromodomain binding, PrOF NMR titration; pH 7.4, 5-fluorotryptophan-labelled bromodomain, 40-50 µM): 1440 µM
C=CC(=C)CC[C@]1(C)[C@H](C)CC[C@@]23C(=C[C@H](OC(=O)CCCCC)C[C@@H]12)[C@@H](OC(C)=O)O[C@H]3OC(C)=O  IC50 (KB-VIN (P-gp-overexpressing); cell growth, SRB): 0.61 µM
CCCCn1cc(C(=O)O)c(=O)c2cc(F)c3[nH]nnc3c21  IC50 (SW-620; cell growth, SRB; 72 h): 33.1 ± 2.08 µg/mL
COC1C=COC2(C)Oc3c(C)c(O)c4c(c3C2=O)C2=NC3(CCN(CC(C)C)CC3)NC2=C(NC(=O)C(C)=CC=CC(C)C(O)C(C)C(O)C(C)C(OC(=O)Nc2cccnn2)C1C)C4=O (stereo not shown)  intracellular/extracellular ratio (THP-1 derived macrophages; relative to: intracellular over extracellular): 23
COC1CCC2(C)C3=C(CCC2C1(C)C)C1(C)CCC(C(C)CCC=C(C)C)C1(C)CC3 (stereo not shown)  inhibition (HCT-15; cell growth or viability, SRB; 50 µM): 4.3%
Cc1cc(C#N)cc(C)c1Oc1nc(NC2CCN(Cc3ccc(S(N)(=O)=O)cc3)CC2)nc2ncccc12  CC50 (TZM-bl; cell growth or viability, XTT): 52.1 µM
C=C(c1ncc(C(=O)O)cn1)c1cc2c(cc1C)C(C)(C)CCC2(C)C  lowest effective concentration (TK6; cytotoxicity, GreenScreen; with: rat liver S9): 213 µg/mL
COc1cccc2c1C(=O)c1c(O)c3c(c(O)c1C2=O)CC(O)(C(=O)CO)CC3OC1CC(NC(=O)C[C@H](N)C(=O)O)C(O)C(C)O1 (stereo partly shown)  efflux ratio (MDCK-MDR1; 50 µg/mL, 60 min; relative to: B-A over A-B): 1.3 ± 0.11
[99Tc+].[C-]#[N+]CC(C)(C)OC.[C-]#[N+]CC(C)(C)OC.[C-]#[N+]CC(C)(C)OC.[C-]#[N+]CC(C)(C)OC.[C-]#[N+]CC(C)(C)OC.[C-]#[N+]CC(C)(C)OC  canalicular efflux fraction (rat sandwich-cultured hepatocytes; relative to: total efflux): 36.8%
[Cl-].[Cl-].[Mn+2].c1ccc(CN2CCNCCN(Cc3ccccc3)CCNCC2)cc1  IC50 (THP-1; cell growth or viability): > 20 µM
CSCC[C@H](NC(=O)[C@H](CC(C)C)NC(=O)[C@H](Cc1c[nH]cn1)NC(=O)CNC(=O)[C@@H](NC(=O)[C@H](C)NC(=O)[C@H](Cc1c[nH]c2ccccc12)NC(=O)[C@H](CCC(N)=O)NC(=O)CCOCCOCCOCCOCCNC(=O)CN1CCN(CC(=O)O)CCN(CC(=O)O)CCN(CC(=O)O)CC1)C(C)C)C(N)=O [indium-111 labelled]  intact peptide (radio-HPLC; male Swiss nu/nu mice, blood; intravenous, 1 nmol, 5 min): 23.3 ± 1.4%
CCOc1c(C(C)(C)O)sc2cnc(Nc3ccc(N4CCC(N5CC6(COC6)C5)CC4)cc3OC)nc12  action potential duration (mouse ventricular cardiomyocytes; patch clamp, item: APD50; 1, 3 and 10 µM): no effect
O=C1CCC(N2C(=O)c3cccc(NCCOCCOCCOCCOCCOCCOCCOCCNCCNc4nonc4/C(=N/O)Nc4ccc(F)c(Br)c4)c3C2=O)C(=O)N1 (stereo not shown)  DC50 (Indoleamine 2,3-dioxygenase 1 (IDO1, Homo sapiens, UniProt P14902); degrader, western blot; HeLa; 24 h, with: IFN-γ 5 ng/mL): 2.84 µM
O=C(OCc1cccc(O)c1O)c1ccc(O)c(CO)c1  cytotoxicity (HL-60; 20 µM, 48 h): not toxic
Cc1ccc(S(=O)(=O)Nn2c3c(cc(-c4nc5ccccc5s4)c2=O)CCCC3)cc1  maximum non-toxic concentration (HEp-2; trypan blue; 72 h): 130 µg/mL
COc1cc(CNC(=O)C[C@H](C)CCC=C(C)C)ccc1OCc1cn(-c2ccccc2F)nn1  growth percent (MDA-MB-468 breast cancer cells; SRB; 10 µM, 48 h): 57.7%
CC(=O)OC[C@H]1O[C@@H](Sc2sc(C(=O)c3ccc(Br)cc3)c(N)c2-c2nc3ccccc3s2)[C@H](OC(C)=O)[C@@H](OC(C)=O)[C@H]1OC(C)=O  maximum non-toxic concentration (HEp-2; cytotoxicity; 72 h): 90 µg/mL
COc1cc(CNC(=O)C[C@H](C)CCC=C(C)C)ccc1OCc1cn(-c2ccc([N+](=O)[O-])cc2)nn1  growth percent (MDA-MB-468 breast cancer cells; SRB; 10 µM, 48 h): 41.4%
COc1ccc(NC(=O)N2CCCN3CCC(c4ccc(C#Cc5ccccc5)cc4)C3C2)cc1 (stereo not shown)  Papp A→B (MDCK-MDR1; Caco-2): 0.45 ×10⁻⁶ cm/s
Nc1ncnc2c1ncn2[C@@H]1O[C@H](CO)[C@@H](O)[C@H]1F  CC50 (iCell cardiomyocytes; sulforhodamine B; 11 days, galactose medium): > 250 µM
Cc1cc(C#N)cc(C)c1Oc1nc(NC2CCN(Cc3ccc(S(=O)(=O)NC4CC4)cc3)CC2)nc2ccccc12  CC50 (TZM-bl; cell growth or viability, XTT): > 0.215 µM
CC/C(=C(\c1ccc(O)cc1)c1ccc(OCCN(C)CCOCCOCCOCCOCCOCCOCCOCCOCCOCCOCCOCCN(C)CCOc2ccc(/C(=C(/CC)c3ccccc3)c3ccc(O)cc3)cc2)cc1)c1ccccc1  cell density (U2OS transfected with ERβ; 10 µM, cytotoxicity): 7%
CC(C)C1CCC2(C)C3CCC4(CCC5=C(O4)C(C)(C)C(=O)C(=C(O)C=Cc4ccccc4)C5=O)C2C13 (stereo not shown)  CC50 (HEp-2; cell growth or viability): 26.6 µM

For quick reference, copied from above:
CC(=O)NCCCC[C@H](NC(=O)CNC(=O)[C@H](CO)NC(=O)[C@H](CC(=O)O)NC(=O)[C@H](CCCCN)NC(=O)CNC(=O)[C@H](C)NC(=O)[C@H](CCCCN)NC(=O)CNC(=O)CNC(=O)[C@H](C)NC(=O)[C@@H](N)Cc1ccc(O)cc1)C(=O)N[C@@H](C)C(=O)N[C@@H](CCCCNC(C)=O)C(=O)N[C@H](C(=O)N[C@@H](CCCCN)C(=O)N[C@@H](C)C(=O)N[C@H](C(=O)N[C@@H](CO)C(=O)N[C@@H](CCCNC(=N)N)C(N)=O)C(C)C)[C@@H](C)O  Kd (Nucleosome-remodeling factor subunit BPTF, bromodomain (BPTF, Homo sapiens, UniProt Q12830); bromodomain binding, PrOF NMR titration; pH 7.4, 5-fluorotryptophan-labelled bromodomain, 40-50 µM): 1440 µM
C=CC(=C)CC[C@]1(C)[C@H](C)CC[C@@]23C(=C[C@H](OC(=O)CCCCC)C[C@@H]12)[C@@H](OC(C)=O)O[C@H]3OC(C)=O  IC50 (KB-VIN (P-gp-overexpressing); cell growth, SRB): 0.61 µM
CC/C(=C(\c1ccc(O)cc1)c1ccc(OCCN(C)CCOCCOCCOCCOCCOCCOCCOCCOCCOCCOCCOCCN(C)CCOc2ccc(/C(=C(/CC)c3ccccc3)c3ccc(O)cc3)cc2)cc1)c1ccccc1  cell density (U2OS transfected with ERβ; 10 µM, cytotoxicity): 7%
O=C(OCc1cccc(O)c1O)c1ccc(O)c(CO)c1  cytotoxicity (HL-60; 20 µM, 48 h): not toxic
